Results gathered from unrelated publications.
Lines come from different studies, so protocols differ. Values joined by “and” are separate records of one study, mostly repeats; a detail may differ.
HDAC8: Histone deacetylase 8 (HDAC8, Homo sapiens, UniProt Q9BY41)
UniProt Q9BY41, sequence (whole entry, looked up): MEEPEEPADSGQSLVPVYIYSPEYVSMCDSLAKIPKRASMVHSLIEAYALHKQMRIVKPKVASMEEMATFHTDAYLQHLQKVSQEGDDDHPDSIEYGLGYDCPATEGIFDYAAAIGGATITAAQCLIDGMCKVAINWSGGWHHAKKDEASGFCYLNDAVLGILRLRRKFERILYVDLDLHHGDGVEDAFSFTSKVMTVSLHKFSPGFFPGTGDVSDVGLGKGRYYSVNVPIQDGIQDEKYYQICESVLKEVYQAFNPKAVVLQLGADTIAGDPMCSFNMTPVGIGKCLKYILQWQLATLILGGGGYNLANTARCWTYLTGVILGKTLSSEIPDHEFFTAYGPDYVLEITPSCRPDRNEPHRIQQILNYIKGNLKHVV
UniProt P00915, sequence (whole entry, looked up): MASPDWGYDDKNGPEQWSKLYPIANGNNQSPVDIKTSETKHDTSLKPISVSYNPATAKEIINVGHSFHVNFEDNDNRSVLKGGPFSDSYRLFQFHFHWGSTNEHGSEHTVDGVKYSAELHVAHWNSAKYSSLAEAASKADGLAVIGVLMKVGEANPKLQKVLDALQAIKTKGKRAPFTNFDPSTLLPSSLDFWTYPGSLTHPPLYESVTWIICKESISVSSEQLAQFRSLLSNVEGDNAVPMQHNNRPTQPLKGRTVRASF
UniProt P05106, sequence (whole entry, looked up): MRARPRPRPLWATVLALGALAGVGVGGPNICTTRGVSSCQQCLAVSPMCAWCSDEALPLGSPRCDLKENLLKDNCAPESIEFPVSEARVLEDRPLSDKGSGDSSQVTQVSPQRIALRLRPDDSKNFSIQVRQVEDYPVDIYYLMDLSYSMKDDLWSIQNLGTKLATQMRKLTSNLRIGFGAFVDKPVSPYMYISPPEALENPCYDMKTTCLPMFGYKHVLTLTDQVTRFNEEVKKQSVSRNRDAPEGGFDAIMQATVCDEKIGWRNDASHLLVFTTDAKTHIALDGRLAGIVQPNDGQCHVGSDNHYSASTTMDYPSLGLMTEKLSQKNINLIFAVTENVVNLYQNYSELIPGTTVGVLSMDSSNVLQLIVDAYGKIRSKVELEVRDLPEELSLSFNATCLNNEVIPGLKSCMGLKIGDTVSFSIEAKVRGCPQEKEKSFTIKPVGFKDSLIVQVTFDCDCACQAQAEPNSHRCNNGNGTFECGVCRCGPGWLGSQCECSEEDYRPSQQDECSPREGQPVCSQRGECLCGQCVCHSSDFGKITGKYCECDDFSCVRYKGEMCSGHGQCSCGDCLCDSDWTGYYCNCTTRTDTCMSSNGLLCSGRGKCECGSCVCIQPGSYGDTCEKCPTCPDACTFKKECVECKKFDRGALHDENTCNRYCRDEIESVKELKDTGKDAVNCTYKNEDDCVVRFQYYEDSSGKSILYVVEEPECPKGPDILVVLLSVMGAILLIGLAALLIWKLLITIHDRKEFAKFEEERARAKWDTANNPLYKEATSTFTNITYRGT
UniProt P08575, sequence (whole entry, looked up): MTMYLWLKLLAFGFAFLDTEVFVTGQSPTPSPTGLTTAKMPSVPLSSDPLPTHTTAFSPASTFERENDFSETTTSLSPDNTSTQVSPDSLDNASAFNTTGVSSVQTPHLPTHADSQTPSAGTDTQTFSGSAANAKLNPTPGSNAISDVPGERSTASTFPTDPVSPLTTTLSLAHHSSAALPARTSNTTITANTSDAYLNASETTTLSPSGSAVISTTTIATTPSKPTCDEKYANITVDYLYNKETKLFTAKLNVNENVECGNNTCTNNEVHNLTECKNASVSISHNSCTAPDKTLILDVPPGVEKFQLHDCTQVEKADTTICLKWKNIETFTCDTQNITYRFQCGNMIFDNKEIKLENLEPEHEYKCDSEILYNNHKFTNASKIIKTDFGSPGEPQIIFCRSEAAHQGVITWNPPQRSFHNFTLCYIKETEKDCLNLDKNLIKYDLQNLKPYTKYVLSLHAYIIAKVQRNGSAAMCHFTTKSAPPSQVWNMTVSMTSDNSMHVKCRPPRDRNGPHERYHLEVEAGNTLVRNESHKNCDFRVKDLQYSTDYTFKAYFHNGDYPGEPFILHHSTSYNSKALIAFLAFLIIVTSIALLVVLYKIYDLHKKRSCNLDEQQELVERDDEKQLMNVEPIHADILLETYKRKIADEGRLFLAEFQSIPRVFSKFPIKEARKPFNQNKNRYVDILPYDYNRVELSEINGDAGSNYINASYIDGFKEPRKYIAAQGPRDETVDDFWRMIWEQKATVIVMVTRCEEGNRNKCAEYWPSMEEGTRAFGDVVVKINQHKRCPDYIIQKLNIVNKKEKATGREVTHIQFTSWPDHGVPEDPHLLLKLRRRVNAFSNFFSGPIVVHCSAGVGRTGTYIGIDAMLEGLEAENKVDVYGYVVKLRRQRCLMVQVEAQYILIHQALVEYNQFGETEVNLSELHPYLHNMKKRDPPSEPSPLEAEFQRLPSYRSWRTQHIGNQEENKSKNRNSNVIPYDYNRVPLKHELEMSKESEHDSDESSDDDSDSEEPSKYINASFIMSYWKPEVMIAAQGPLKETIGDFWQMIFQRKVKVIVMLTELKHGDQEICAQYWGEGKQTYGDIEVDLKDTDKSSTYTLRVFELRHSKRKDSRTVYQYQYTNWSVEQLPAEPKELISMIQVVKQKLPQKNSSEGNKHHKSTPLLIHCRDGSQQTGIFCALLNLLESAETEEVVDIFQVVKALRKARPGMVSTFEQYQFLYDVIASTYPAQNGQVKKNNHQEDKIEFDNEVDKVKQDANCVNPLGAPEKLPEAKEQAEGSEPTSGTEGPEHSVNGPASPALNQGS
UniProt P35462, sequence (whole entry, looked up): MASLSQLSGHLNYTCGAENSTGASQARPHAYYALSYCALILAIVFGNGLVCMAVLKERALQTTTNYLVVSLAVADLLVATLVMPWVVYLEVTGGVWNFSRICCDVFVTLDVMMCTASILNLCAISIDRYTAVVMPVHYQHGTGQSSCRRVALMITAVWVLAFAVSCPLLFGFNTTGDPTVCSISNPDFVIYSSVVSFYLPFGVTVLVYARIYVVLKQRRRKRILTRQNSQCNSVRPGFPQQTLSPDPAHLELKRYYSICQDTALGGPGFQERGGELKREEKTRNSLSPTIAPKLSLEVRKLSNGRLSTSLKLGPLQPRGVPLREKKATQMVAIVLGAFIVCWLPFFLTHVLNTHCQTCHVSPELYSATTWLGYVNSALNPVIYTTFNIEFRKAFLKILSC
UniProt Q9UBN7, sequence (whole entry, looked up): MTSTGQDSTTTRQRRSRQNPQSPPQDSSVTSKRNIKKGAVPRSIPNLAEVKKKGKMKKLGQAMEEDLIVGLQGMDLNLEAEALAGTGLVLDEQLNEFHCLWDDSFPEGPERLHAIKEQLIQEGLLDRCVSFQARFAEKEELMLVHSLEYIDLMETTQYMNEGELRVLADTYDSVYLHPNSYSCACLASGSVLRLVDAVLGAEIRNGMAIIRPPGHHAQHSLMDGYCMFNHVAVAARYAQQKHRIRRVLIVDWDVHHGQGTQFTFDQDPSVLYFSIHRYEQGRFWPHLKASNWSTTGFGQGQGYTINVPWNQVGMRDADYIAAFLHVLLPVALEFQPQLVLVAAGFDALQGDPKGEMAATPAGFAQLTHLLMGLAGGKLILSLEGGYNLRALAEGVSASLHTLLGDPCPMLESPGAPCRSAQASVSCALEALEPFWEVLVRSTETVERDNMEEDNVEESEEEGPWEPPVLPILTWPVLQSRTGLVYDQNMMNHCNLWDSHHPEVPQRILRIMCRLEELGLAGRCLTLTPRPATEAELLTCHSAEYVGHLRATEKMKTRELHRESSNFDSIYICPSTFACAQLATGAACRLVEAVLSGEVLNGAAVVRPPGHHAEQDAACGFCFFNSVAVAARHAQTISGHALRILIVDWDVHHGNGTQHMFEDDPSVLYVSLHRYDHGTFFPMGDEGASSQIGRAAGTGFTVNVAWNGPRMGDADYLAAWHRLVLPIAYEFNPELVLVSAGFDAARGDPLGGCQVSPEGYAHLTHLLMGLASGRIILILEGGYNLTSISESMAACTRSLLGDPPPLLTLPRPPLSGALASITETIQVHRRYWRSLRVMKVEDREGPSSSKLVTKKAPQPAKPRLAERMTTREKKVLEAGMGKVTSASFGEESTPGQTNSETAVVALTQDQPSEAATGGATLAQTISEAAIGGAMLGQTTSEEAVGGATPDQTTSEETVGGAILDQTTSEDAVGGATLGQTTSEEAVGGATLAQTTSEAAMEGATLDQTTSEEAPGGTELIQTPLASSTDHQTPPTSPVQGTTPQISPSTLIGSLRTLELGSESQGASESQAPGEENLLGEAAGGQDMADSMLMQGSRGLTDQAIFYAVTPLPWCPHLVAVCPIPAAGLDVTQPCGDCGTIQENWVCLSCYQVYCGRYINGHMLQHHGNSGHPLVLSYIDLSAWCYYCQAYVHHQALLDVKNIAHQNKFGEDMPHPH
UniProt P08588, sequence (whole entry, looked up): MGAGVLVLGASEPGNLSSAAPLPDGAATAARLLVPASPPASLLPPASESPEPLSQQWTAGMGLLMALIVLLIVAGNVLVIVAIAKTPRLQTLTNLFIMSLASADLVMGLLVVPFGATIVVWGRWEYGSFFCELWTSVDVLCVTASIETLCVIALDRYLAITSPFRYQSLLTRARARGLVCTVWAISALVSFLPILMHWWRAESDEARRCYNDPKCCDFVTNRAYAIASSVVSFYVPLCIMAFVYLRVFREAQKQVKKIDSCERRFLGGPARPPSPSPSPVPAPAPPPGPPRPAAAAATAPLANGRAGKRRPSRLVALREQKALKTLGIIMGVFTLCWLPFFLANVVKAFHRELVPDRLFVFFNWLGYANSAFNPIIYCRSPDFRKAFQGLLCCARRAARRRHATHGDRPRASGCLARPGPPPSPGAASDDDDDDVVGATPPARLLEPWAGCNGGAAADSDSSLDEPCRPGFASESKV

The selectivity ratio of CN(C)CCNC(=O)c1cccc2c(NCCCCc3c(N)nc(N)nc3N)c3ccccc3nc12 is reported as 93 (human cardiac troponin T pre-mRNA 18-nt fragment; binding, ITC; relative to: Kd RNA A over Kd RNA I).
For COc1ccc(C(=O)Nc2cc(-c3ccc([125I])cc3)no2)cc1, the selectivity ratio was ~5.2 (Alpha-synuclein, fibrils (SNCA, Homo sapiens, UniProt P37840); radioligand saturation binding; relative to: α-synuclein over Aβ42 affinity).
CCCCCCCCCCCCCCCCC1=C[C@H](C(=O)NC(C(=O)O)C(C)C)[C@H]2C(=O)C(C(=O)OC)=C(CCCCCCCCCCCCCCCC)[C@H]2[C@H]1C(=O)OC (stereo partly shown) has a selectivity ratio of 4 (Tyrosine-protein phosphatase non-receptor type 2 (PTPN2, Homo sapiens, UniProt P17706); inhibitor, pNPP hydrolysis; relative to: TCPTP over PTP1B, higher = TCPTP-selective).
O=C(CCCCCCN(Cc1ccc([N+](=O)[O-])cc1)Cc1ccc([N+](=O)[O-])cc1)NO gave a selectivity ratio of 2.5 (HDAC8; inhibitor; relative to: IC50 HDAC8 over HDAC1).
CC(C)c1ccc2c(c1)CC[C@H]1[C@](C)(C(=O)O)CCC[C@]21C has a selectivity ratio of 14 and 14.5 (Carbonic anhydrase 1 (CA1, Homo sapiens, UniProt P00915); enzyme activity, inhibitor; relative to: IC50 CA I over IC50 CA IX).
O=C(Nc1ccc(C(=O)Nc2ccc(C(=O)Nc3ccc(S(=O)(=O)O)c4cc(S(=O)(=O)O)cc(S(=O)(=O)O)c34)cc2)cc1)Nc1ccc(C(=O)Nc2ccc(C(=O)Nc3ccc(S(=O)(=O)O)c4cc(S(=O)(=O)O)cc(S(=O)(=O)O)c34)cc2)cc1 gave a selectivity ratio of > 1590 fold (Coagulation factor IX (F9, Homo sapiens, UniProt P00740); relative to: HNE over FIXa).
COc1ccc(/N=N/c2ccc(OC[C@@H](O)CNC(C)C)cc2)cc1 gave a selectivity ratio of 188 (Beta-1 adrenergic receptor (ADRB1, Homo sapiens, UniProt P08588); cAMP production, EPAC FRET biosensor; dark; relative to: beta1 over beta2).
CC(C)[C@H](NC(=O)[C@H](CC(=O)O)NC(=O)CNC(=O)[C@@H](N)CCCNC(=N)N)C(=O)O gave a selectivity ratio of 20 fold (Integrin alpha-IIb/beta-3, ADP-activated (Homo sapiens, UniProt P05106+P08514); fibrinogen binding; relative to: IC50 endothelial cells over platelets).
With N[C@@H](CCC(=O)N[C@@H](CS[Se]Cc1ccc(-c2cccc(C(O)c3ccc(Cl)c(Cl)c3)c2)cc1)C(=O)NCC(=O)O)C(=O)O (stereo partly shown) the selectivity ratio was > 20 fold (Receptor-type tyrosine-protein phosphatase C (PTPRC, Homo sapiens, UniProt P08575); relative to: IC50 PTPRC over STEP).
The selectivity ratio of O=C(CCCCCCNCc1ccc2c(c1)OCO2)NO is reported as 2.1 (HDAC8; inhibitor; relative to: IC50 HDAC8 over HDAC1).
For CC(CO)(CO)NCc1ccc(-c2cc(Cl)ccc2Cl)o1, the selectivity ratio was 6 fold (D(3) dopamine receptor (DRD3, Homo sapiens, UniProt P35462); binding, radioligand competition; relative to: Ki D2 over Ki D3).
Cc1cc(CNCCCCCCC(=O)NO)ccc1F has a selectivity ratio of 20 (HDAC8; inhibitor; relative to: IC50 HDAC8 over HDAC1).
For CCCN(CC(=O)N(CCC)CC(=O)N(CCC)CC(=O)N(CCC)CC(=O)N(CC(=O)N(CCC)CC(=O)N(CCC)CC(=O)N(CCC)CC(=O)N(CCC)CC(=O)N(CC(=O)N(CCC)CC(=O)N(CCC)CC(=O)N(CCC)CC(=O)N(CCC)CC(=O)N(CC(N)=O)Cc1cn(CCCNC(=O)CCCOc2cccc(-c3nc4ccc(-c5nc6ccc(N7CCN(C)CC7)cc6[nH]5)cc4[nH]3)c2)nn1)Cc1cn(CCCNC(=O)CCCOc2cccc(-c3nc4ccc(-c5nc6ccc(N7CCN(C)CC7)cc6[nH]5)cc4[nH]3)c2)nn1)Cc1cn(CCCNC(=O)CCCOc2cccc(-c3nc4ccc(-c5nc6ccc(N7CCN(C)CC7)cc6[nH]5)cc4[nH]3)c2)nn1)C(=O)CNCc1cn(CCCNC(=O)CCCOc2cccc(-c3nc4ccc(-c5nc6ccc(N7CCN(C)CC7)cc6[nH]5)cc4[nH]3)c2)nn1, the selectivity ratio was 13 fold (r(CUG)109 RNA; binding, fluorescence; relative to: r(CUG) over herring sperm DNA).
The selectivity ratio of O=C(CCCCCCN(Cc1ccc(F)cc1)Cc1ccc(F)cc1)NO is reported as 2.1 (HDAC8; inhibitor; relative to: IC50 HDAC8 over HDAC1).
With O=C(NO)c1ccc(Cn2sc3ccccc3c2=O)cc1 the selectivity ratio was > 400 fold (Protein deacetylase HDAC6 (HDAC6, Homo sapiens, UniProt Q9UBN7); relative to: SIRT1/2/3/5 IC50 over HDAC6 IC50).
O=C(CCCCCCNCc1cccnc1)NO gave a selectivity ratio of 3.7 (HDAC8; inhibitor; relative to: IC50 HDAC8 over HDAC1).
For CCCCCCCC(=O)Nc1ccc(OC)nc1, the selectivity ratio was 20 fold (Fatty-acid amide hydrolase 1 (FAAH, Homo sapiens, UniProt O00519); substrate, biochemical; relative to: FAAH over hCE1).
With COc1ccc(CNCCCCCCC(=O)NO)cc1OC the selectivity ratio was 8.6 (HDAC8; inhibitor; relative to: IC50 HDAC8 over HDAC1).
The selectivity ratio of O=C(c1ccc(F)cc1)C1CCN(C2Cc3c(O)cccc3CC2O)CC1 (single isomer, unassigned; (+)) is reported as 1900 (VAChT and sigma-2 receptor; relative to: sigma-2 Ki over VAChT Ki).

A few entries again:
With N[C@@H](CCC(=O)N[C@@H](CS[Se]Cc1ccc(-c2cccc(C(O)c3ccc(Cl)c(Cl)c3)c2)cc1)C(=O)NCC(=O)O)C(=O)O (stereo partly shown) the selectivity ratio was > 20 fold (Receptor-type tyrosine-protein phosphatase C (PTPRC, Homo sapiens, UniProt P08575); relative to: IC50 PTPRC over STEP).
For COc1ccc(C(=O)Nc2cc(-c3ccc([125I])cc3)no2)cc1, the selectivity ratio was ~5.2 (Alpha-synuclein, fibrils (SNCA, Homo sapiens, UniProt P37840); radioligand saturation binding; relative to: α-synuclein over Aβ42 affinity).
For CCCN(CC(=O)N(CCC)CC(=O)N(CCC)CC(=O)N(CCC)CC(=O)N(CC(=O)N(CCC)CC(=O)N(CCC)CC(=O)N(CCC)CC(=O)N(CCC)CC(=O)N(CC(=O)N(CCC)CC(=O)N(CCC)CC(=O)N(CCC)CC(=O)N(CCC)CC(=O)N(CC(N)=O)Cc1cn(CCCNC(=O)CCCOc2cccc(-c3nc4ccc(-c5nc6ccc(N7CCN(C)CC7)cc6[nH]5)cc4[nH]3)c2)nn1)Cc1cn(CCCNC(=O)CCCOc2cccc(-c3nc4ccc(-c5nc6ccc(N7CCN(C)CC7)cc6[nH]5)cc4[nH]3)c2)nn1)Cc1cn(CCCNC(=O)CCCOc2cccc(-c3nc4ccc(-c5nc6ccc(N7CCN(C)CC7)cc6[nH]5)cc4[nH]3)c2)nn1)C(=O)CNCc1cn(CCCNC(=O)CCCOc2cccc(-c3nc4ccc(-c5nc6ccc(N7CCN(C)CC7)cc6[nH]5)cc4[nH]3)c2)nn1, the selectivity ratio was 13 fold (r(CUG)109 RNA; binding, fluorescence; relative to: r(CUG) over herring sperm DNA).
